Published values from different studies.
pIC50: −log10 of the molar value. Values after ≈ are worked out from the molar mass of the structure shown.

COC1CN([C@H]2CC[C@H]([C@@]3(C)Oc4c(Cl)cc(C(=O)NCc5c(SC)cc(C)[nH]c5=O)c(C)c4O3)CC2)C1 — log2 fold change (RNA-seq, item: NLRX1; human, whole blood; dose not given, 24 h; baseline: pretreatment baseline): 1.48
CC(C)c1ccc(N(C)c2ccc3c(c2)OCC[C@H]3CNc2cnccc2C(=O)O)cc1 — pIC50 (G-401; cell growth or viability, ATP luminescence; 7 days): 8.35
C=C(NC(=O)c1csc(-c2nc3c(cc2O)-c2nc(cs2)C(=O)NC(C(C)O)C(=O)NC(=C(C)OC)c2nc(cs2)C(=O)NC2c4nc(cs4)C(=O)NC(COC(=O)c4c5c6c(cccc6n4O)COC(=O)C(OC4CC(C)(O)C(N(C)C)C(C)O4)C2OC5)c2nc-3cs2)n1)C(N)=O (centres unmarked) — MIC50 (Staphylococcus aureus; broth microdilution; methicillin-resistant isolates): 0.0156 µg/mL (≈ 0.0109 µM)
Cn1ncc2cc(-c3cncc(Cl)c3N3CCC4(CCNC4=O)CC3)ccc21 — log2 fold change (LS174T; gene expression, microarray, item: ARRDC3 mRNA; concentration not given, 4 h; baseline: untreated cells): 1.41
Fc1ccc(Nc2nc(NC3CCCCC3)c3ccccc3n2)cc1F — maximal inhibition (β2AR/β1AR ECL3 chimera; β-arrestin2 recruitment, antagonist, BRET; baseline: isoprenaline maximal response): 3.6%
C=CC(=O)Nc1cccc(Cn2ncc3cnc(Nc4cnn(CCOC)c4)nc32)c1 — percent of control (GRK1 human; binding, KINOMEscan; 100 nM; lower = stronger binding): 100%
CCN(CC)CC(=O)Nc1cccc(-n2cc(-c3ccc4ccc(-c5cn(-c6cccc(NC(=O)CN(CC)CC)c6)nn5)cc4c3)nn2)c1 — fold regulation (RCC4; PCR angiogenesis array, item: JAG1; 5 x IC50, 4 h, normoxia; baseline: untreated): -1.14
Nc1ncc(-c2cc(-c3cnn(CC(F)(F)F)c3)ncc2F)nc1C(=O)NC1CNCC(F)C1 (centres unmarked) — remaining binding (MELK; KINOMEscan; 1 µM; baseline: DMSO control): 81%
CNS(=O)(=O)Nc1nccc(Cc2c(C)c3ccc(Oc4ncccc4F)cc3oc2=O)c1F — pIC50 (HT-1376; cell viability; 7 days): < 6.00
C=CC(=O)N1[C@@H](c2ccc3c(c2)OCO3)c2[nH]c3ccccc3c2C[C@H]1C(=O)N1CCN(C)CC1 — relative co-enrichment (human cyclin E1 N112C-3xFLAG:CDK2; co-IP with TMT proteomics, item: NCL; concentration not given, P19338; baseline: wild type DMSO): 117%
CN1CCCNC(=O)c2cccc(c2)C(=O)NCCCN(C)CCCNc2cccc3c2C(=O)c2cccc(c2C3=O)NCCC1 — log2 fold change (SAS; RNA-Seq, item: GMNN mRNA; 1 µM, 6 h; baseline: untreated cells): -1.14
N=C(N)NCCC[C@@H]1NC(=O)[C@H](CCCNC(=N)N)NC(=O)[C@@H](CCCNC(=N)N)NC(=O)[C@@H](CCCNC(=N)N)NC(=O)[C@@H](C(c2ccccc2)c2ccccc2)NC(=O)[C@@H](Cc2c[nH]c3ccccc23)NC(=O)[C@@H](C(c2ccccc2)c2ccccc2)NC1=O — MIC (Candida albicans; CA3): 32 µg/mL (≈ 25.4 µM)
Cc1ncsc1-c1ccc(C(C)NC(=O)C2CC(O)CN2C(=O)C(NC(=O)CCCCCCCCCCN2CCCC(Nc3ncc(Cl)c(Nc4ccccc4S(=O)(=O)C(C)C)n3)C2)C(C)(C)C)cc1 (centres unmarked) — log2 fold change (22Rv1; RNA-seq, item: ZMYM1 mRNA; concentration not given; baseline: DMSO): -1.66
c1ccc(-c2n[nH]cc2-c2ccnc3ccccc23)nc1 — log2 fold change (KNS1 (Candida albicans); kinase binding, MIB/MS competition; Candida albicans lysate; 10 µM; baseline: DMSO): -0.43

Some of these lines once more:
C=C(NC(=O)c1csc(-c2nc3c(cc2O)-c2nc(cs2)C(=O)NC(C(C)O)C(=O)NC(=C(C)OC)c2nc(cs2)C(=O)NC2c4nc(cs4)C(=O)NC(COC(=O)c4c5c6c(cccc6n4O)COC(=O)C(OC4CC(C)(O)C(N(C)C)C(C)O4)C2OC5)c2nc-3cs2)n1)C(N)=O (centres unmarked) — MIC50 (Staphylococcus aureus; broth microdilution; methicillin-resistant isolates): 0.0156 µg/mL (≈ 0.0109 µM)
Cn1ncc2cc(-c3cncc(Cl)c3N3CCC4(CCNC4=O)CC3)ccc21 — log2 fold change (LS174T; gene expression, microarray, item: ARRDC3 mRNA; concentration not given, 4 h; baseline: untreated cells): 1.41
